Experimental data from different studies.
Each line is one published result; not all experiments were run side by side.

With `CCCN1CCN(c2ccc3nc(-c4ccc5nc(-c6cc(OC)ccc6OC)[nH]c5c4)[nH]c3c2)CC1` the growth percent was 104% (SF-295; SRB; 10 µM, 48 h).
With `CCn1cc(-c2cc(Cn3ccnc3)cc3c2CCN([C@H](c2cc(OC)ccn2)C2CC2)C3=O)c(C(F)(F)F)n1` the EC50 was 114 nM (LS174T; cell growth, inhibitor; 120 h).
Under “fold change in expression”, `Cn1cc(-c2ccc(-c3cncc(Cl)c3N3CCC4(CCNC4=O)CC3)cc2)cn1` is recorded as 2.86 (COLO 205; microarray, measured: PDGFB; concentration not given, 2 h; relative to: untreated cells).
`CC1(C)CCC(CN2CCN(c3ccc(C(=O)NS(=O)(=O)c4ccc(NCC5CCOCC5)c([N+](=O)[O-])c4)c(Oc4cnc5[nH]ccc5c4)c3)CC2)=C(c2ccc(Cl)cc2)C1` has a viable cells of 85.7% (THP-1; annexin V/PI flow cytometry, measured: annexin V-/PI-; 3.2 µM, 24 h).
For `COc1nc(NCc2cn(-c3ccc(C(=O)Nc4ccccc4)cc3)nn2)nc(OC)n1`, the apoptotic cells was 38.1 fold (HCT-116; annexin V-FITC/PI; IC50, 24 h; relative to: untreated).
`CCCCN1CCN(c2ccc3[nH]c(-c4ccc5[nH]c(-c6ccc(OCC)c(OCC)c6)nc5c4)nc3c2)CC1` has a growth percent of -67.8% (SF-295; SRB; 10 µM, 48 h).
With `COc1nc(NCc2cn(-c3ccc(C(=O)Nc4ccc(C(F)(F)F)cc4)cc3)nn2)nc(OC)n1` the necrotic cells was 3.95% (HCT-116; annexin V-FITC/PI; IC50, 24 h).
`CC(C)NCC(O)c1ccc(O)c(O)c1` (stereo not drawn) has a sarcomere length of 1.69 µm (mouse ventricular cardiomyocytes; dose not given, 0.191 s).
For `Cc1cccc(-c2[nH]c(CNc3ccccc3F)nc2-c2ccc3ncnn3c2)n1`, the viability was 83% (bone marrow CD138+ myeloma cells; XTT; 0.6 µM, phenol red-free RPMI).

Excerpt of the above:
`CC(C)NCC(O)c1ccc(O)c(O)c1` (stereo not drawn) has a sarcomere length of 1.69 µm (mouse ventricular cardiomyocytes; dose not given, 0.191 s).
